Results collected from several papers.
Compare with care: the assays were run in different laboratories.
PIK3CB: Phosphatidylinositol 4,5-bisphosphate 3-kinase catalytic subunit beta isoform (PIK3CB, Homo sapiens, UniProt P42338)
Sequence of UniProt P42338 (whole entry, looked up): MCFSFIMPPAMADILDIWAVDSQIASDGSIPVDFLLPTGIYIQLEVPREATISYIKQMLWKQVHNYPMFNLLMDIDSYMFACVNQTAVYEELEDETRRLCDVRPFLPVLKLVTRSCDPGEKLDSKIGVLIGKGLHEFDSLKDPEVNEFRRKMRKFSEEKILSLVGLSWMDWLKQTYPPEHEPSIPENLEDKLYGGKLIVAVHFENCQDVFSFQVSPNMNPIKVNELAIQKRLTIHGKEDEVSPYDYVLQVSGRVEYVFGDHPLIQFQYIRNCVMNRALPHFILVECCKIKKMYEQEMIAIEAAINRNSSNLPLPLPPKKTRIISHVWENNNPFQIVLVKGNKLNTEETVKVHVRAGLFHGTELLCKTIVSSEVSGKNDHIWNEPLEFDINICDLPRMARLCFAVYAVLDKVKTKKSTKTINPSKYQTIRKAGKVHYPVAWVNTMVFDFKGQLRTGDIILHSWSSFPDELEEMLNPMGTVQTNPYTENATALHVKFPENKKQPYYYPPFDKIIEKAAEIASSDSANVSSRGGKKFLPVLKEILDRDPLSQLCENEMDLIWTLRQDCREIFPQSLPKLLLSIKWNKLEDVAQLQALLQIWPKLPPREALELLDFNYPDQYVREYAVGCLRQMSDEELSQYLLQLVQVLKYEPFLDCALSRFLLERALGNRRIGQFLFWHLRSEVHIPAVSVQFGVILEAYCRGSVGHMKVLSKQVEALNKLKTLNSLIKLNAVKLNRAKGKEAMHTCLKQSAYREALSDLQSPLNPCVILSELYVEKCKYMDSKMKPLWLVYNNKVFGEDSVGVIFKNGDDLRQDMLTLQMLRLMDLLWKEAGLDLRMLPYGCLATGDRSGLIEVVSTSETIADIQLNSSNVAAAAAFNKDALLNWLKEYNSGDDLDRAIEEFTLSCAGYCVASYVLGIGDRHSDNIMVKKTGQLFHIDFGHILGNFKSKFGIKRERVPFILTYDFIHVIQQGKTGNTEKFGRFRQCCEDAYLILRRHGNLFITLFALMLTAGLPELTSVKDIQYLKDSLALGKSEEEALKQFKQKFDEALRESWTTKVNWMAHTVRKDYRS
Genome polyprotein protease: Genome polyprotein, protease (Hepatitis C virus genotype 1b, UniProt O92972)
Sequence of UniProt O92972 (whole entry, looked up): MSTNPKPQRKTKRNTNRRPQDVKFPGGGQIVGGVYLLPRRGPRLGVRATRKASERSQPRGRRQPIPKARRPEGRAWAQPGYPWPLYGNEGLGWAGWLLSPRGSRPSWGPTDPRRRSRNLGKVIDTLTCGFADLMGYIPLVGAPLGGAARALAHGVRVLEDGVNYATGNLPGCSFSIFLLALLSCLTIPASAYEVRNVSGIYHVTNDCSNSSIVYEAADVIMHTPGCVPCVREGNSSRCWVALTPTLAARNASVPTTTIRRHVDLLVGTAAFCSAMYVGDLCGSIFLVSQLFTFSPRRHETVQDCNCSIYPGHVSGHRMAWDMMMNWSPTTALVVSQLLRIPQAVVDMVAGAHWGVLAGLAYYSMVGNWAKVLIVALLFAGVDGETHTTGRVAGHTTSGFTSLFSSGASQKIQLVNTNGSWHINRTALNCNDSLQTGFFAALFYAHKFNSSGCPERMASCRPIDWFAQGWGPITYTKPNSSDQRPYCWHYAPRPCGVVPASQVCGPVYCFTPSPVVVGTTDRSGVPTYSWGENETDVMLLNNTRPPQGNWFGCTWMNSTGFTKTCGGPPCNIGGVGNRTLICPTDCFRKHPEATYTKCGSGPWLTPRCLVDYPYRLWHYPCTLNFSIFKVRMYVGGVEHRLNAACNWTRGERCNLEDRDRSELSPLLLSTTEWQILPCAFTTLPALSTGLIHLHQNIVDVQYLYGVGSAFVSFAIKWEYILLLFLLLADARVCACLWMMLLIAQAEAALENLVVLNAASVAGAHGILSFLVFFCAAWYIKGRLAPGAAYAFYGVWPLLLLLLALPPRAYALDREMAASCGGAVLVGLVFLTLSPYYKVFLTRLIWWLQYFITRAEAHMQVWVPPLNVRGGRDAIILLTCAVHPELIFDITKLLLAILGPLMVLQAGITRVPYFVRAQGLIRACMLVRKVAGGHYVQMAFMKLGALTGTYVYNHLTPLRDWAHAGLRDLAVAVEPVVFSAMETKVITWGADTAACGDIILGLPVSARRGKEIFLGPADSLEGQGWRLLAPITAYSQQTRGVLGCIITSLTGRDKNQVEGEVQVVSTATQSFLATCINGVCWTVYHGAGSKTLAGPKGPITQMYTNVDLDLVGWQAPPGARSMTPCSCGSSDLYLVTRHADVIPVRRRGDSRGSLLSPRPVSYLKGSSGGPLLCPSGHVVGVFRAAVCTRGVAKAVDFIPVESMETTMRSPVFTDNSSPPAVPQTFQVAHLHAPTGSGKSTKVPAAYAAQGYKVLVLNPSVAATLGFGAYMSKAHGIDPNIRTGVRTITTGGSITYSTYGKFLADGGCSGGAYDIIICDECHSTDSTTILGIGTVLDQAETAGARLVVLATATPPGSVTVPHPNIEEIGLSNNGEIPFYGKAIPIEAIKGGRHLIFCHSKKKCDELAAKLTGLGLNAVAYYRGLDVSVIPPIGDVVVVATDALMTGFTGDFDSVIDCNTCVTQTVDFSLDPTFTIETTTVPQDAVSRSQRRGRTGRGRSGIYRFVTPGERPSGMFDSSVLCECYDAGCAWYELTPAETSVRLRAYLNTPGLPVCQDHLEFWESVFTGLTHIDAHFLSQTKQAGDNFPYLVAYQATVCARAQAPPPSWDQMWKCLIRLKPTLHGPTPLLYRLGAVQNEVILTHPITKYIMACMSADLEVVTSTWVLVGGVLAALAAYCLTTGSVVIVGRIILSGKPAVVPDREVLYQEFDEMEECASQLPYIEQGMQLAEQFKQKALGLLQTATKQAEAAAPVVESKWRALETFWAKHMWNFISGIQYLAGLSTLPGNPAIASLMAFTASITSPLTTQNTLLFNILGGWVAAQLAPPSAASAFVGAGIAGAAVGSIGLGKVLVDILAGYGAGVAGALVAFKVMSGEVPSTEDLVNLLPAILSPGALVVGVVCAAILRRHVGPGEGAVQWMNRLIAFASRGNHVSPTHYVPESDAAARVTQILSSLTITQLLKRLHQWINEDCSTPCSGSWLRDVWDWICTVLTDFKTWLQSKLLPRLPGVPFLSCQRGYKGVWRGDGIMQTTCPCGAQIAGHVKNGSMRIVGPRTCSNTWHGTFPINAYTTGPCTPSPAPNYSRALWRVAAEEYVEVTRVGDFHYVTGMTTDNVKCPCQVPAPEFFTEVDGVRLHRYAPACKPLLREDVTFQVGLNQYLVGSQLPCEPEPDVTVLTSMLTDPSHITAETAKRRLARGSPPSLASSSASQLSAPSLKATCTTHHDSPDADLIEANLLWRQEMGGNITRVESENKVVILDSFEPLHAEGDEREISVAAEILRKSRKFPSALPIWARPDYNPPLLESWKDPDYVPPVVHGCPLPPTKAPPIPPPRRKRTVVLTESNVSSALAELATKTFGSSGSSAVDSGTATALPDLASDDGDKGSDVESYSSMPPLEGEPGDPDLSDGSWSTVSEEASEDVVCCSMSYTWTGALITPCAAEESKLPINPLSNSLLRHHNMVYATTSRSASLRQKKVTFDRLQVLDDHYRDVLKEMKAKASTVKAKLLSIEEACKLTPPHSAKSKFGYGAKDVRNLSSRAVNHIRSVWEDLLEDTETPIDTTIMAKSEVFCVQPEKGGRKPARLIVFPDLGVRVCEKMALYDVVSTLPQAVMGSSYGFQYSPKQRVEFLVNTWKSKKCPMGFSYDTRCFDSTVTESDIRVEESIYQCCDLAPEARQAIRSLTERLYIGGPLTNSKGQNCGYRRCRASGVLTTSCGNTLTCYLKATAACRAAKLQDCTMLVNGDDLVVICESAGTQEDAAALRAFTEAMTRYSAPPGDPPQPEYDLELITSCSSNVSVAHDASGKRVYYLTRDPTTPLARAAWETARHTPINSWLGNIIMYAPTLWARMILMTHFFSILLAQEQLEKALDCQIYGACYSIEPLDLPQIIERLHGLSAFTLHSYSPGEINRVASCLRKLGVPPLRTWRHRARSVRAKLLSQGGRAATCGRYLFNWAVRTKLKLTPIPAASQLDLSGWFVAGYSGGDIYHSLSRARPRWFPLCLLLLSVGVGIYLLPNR
HDAC8: Histone deacetylase 8 (HDAC8, Homo sapiens, UniProt Q9BY41)
SLC10A1: Hepatic sodium/bile acid cotransporter (SLC10A1, Homo sapiens, UniProt Q14973)
PSMB6: Proteasome subunit beta type-6 (PSMB6, Homo sapiens, UniProt P28072)
Sequence of UniProt P28072 (whole entry, looked up): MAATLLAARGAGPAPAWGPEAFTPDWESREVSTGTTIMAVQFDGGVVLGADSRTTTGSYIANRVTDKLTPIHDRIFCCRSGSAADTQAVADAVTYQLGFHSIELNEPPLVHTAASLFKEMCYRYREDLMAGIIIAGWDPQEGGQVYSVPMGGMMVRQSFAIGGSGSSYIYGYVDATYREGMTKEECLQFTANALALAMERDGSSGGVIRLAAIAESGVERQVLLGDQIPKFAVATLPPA
HDAC3: Histone deacetylase 3 (HDAC3, Homo sapiens, UniProt O15379)
Sequence of UniProt O15379 (whole entry, looked up): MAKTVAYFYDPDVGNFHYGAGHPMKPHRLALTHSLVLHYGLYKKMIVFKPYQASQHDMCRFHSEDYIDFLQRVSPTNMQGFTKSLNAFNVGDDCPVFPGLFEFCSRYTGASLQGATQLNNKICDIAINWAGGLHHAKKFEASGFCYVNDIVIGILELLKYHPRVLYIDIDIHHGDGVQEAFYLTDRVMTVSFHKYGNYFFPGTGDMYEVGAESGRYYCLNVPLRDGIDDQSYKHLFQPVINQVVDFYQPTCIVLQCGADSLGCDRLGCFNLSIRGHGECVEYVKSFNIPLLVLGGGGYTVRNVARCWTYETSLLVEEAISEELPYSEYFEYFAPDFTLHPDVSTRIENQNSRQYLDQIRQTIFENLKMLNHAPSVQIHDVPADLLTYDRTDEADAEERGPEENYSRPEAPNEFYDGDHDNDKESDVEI
Sequence of UniProt P35346 (whole entry, unmodified, looked up): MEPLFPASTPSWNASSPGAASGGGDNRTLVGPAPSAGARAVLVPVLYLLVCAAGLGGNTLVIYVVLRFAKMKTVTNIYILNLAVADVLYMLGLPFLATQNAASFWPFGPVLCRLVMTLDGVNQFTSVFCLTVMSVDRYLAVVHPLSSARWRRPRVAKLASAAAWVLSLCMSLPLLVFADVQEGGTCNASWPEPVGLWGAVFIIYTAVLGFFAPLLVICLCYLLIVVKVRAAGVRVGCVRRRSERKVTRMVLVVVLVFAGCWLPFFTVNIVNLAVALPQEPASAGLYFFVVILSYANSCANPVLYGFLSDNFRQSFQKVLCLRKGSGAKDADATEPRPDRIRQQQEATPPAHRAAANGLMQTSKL

Cc1nc(N(C)c2ccc3c(c2)/C(=C/c2cn(C)c4ccccc24)C(=O)N3C)c2ccccc2n1 gave an IC50 of 106 nM (PIK3CB; enzyme activity, inhibitor, ADP detection).
With COc1ccc2c(c1)CN(C(=O)CCN1CCC(Cc3ccccc3)CC1)CCS2 the IC50 was > 100000 nM (Kir3.1/Kir3.4 (Homo sapiens, UniProt P48544+P48549); GIRK current, inhibitor, whole-cell patch clamp; stable cell line).
For COc1cc(-n2cc3cc(F)cc(C(N)=O)c3n2)cc(Cl)c1C1CC(O)(CCO)CC(C)=C1C (stereo not shown), the IC50 was 0.27 nM (PARP1 (Homo sapiens, UniProt P09874); enzyme activity, inhibitor, radiometric).
For CCCCn1c(NN)nc2ccc(C)cc2c1=O, the IC50 was 23400 nM (Genome polyprotein protease; enzyme activity, inhibitor, FRET).
The IC50 of O=C1/C(=N\c2ccccc2Br)c2ccccc2N1Cc1ccc([N+](=O)[O-])cc1 is reported as 46.8 nM (PIK3CB; enzyme activity, inhibitor, ADP detection).
Cc1ccc2c(c1Br)C(O)(CC(=O)c1ccc3c(c1)OCO3)C(=O)N2 (stereo not shown) has an IC50 of 36600 nM (Uncharacterized protein (Trypanosoma brucei brucei, UniProt Q386Q8); inhibitor, coupled colorimetric; Trypanosoma brucei).
For OCC1OC(n2cnc3c(NCc4ccc(Br)s4)ncnc32)C(O)C1O (stereo not shown), the IC50 was 150 nM (SLC29A1 (Homo sapiens, UniProt Q99808); ligand displacement, radioligand).
Cc1cc(NC2CCN(C)CC2)ccc1-c1cc2c(N3CCC[C@H](C(=O)NCc4ccc(OC(F)(F)F)cc4)C3)ncnc2[nH]1 has an IC50 of 2410 nM (AKT1 (Homo sapiens, UniProt P31749); enzyme activity, inhibitor, mobility shift).
With Cc1nn(-c2cccc(N)c2)c(=O)c2cnc(Nc3ccc(N4CCNCC4)cc3)nc12 the IC50 was > 10000 nM (Cyclin-dependent kinase 1, with cyclin B (CDK1, Homo sapiens, UniProt P06493); enzyme activity, inhibitor).
With O=C(NO)c1cncc(OS(=O)(=O)Oc2ccccc2-c2ccccc2)c1 the IC50 was 1710 nM (HDAC8; enzyme activity, inhibitor, fluorescence).
C=CC(=O)Nc1ccc(F)c(-c2ncnc3[nH]cc(C(=O)OCC)c23)c1 gave an IC50 of 4630 nM (ITK (Homo sapiens, UniProt Q08881); kinase activity; together with: ATP 1 mM).
COc1ccc2c(c1)N(C1=C(c3ccc(F)cc3)C(=O)NC1=O)CC2 has an IC50 of 280000 nM (GSK3B (Homo sapiens, UniProt P49841); enzyme activity, inhibitor).
With CCn1nc(Cl)c2c1-c1cnc(N)c(c1)O[C@H](C)c1cc(F)ccc1-c1nn(C)cc1C2 the IC50 was 190 nM (Insulin receptor (INSR, Homo sapiens, UniProt P06213); enzyme activity, inhibitor, radiometric).
The IC50 of Cc1nc(Nc2ccc3c(c2)/C(=C/c2ccccc2)C(=O)N3)c2ccccc2n1 is reported as 12 nM (PIK3CB; enzyme activity, inhibitor, ADP detection).
For C[C@]12CC[C@@H]3c4ccc(OS(=O)(=O)O)cc4CC[C@H]3[C@@H]1CCC2=O, the IC50 was > 80000 nM (SLC10A1).
The IC50 of CC(C)C[C@H](NC(=O)[C@H](Cc1ccc(CN)cc1)NC(=O)[C@H](Cc1ccccc1)N=[N+]=[N-])C(=O)N[C@@H](CC1CCC(C2CCCCC2)CC1)C(=O)[C@@]1(C)CO1 (stereo partly shown) is reported as > 10000 nM (PSMB6; competitive ABPP; Raji cell lysate).
Cc1cc2nc3c(nc2cc1C)-c1ccc2[n]1[Au-]14[n]5c(ccc5-3)C=[N+]1CCC[N+]4=C2.F[P-](F)(F)(F)(F)F has an IC50 of 13000 nM (DNA topoisomerase 1 (TOP1, Homo sapiens, UniProt P11387); enzyme activity, inhibitor).
With CCOc1cc(CN2CCC3(CC2)CN(c2ccc(C(=O)O)cc2)C(=O)N3)c(C2CC2)cc1C the IC50 was 447 nM (SSTR5 (Homo sapiens, UniProt P35346, L96A); cAMP level, antagonist, GloSensor; AD293; L96A mutant, bandwidth 2.60, together with: CST17 EC80 and forskolin).
For O=C(Nc1cccc(C(F)(F)F)c1)N1CCN(c2ccc(F)cc2)CC1, the IC50 was 6900 nM (CatSper channel complex (Homo sapiens, UniProt Q7RTX7+Q86XQ3+Q8NEC5+Q96P56); calcium influx, inhibitor, FLIPR; human sperm; together with: high pH, high potassium).
CCC(=O)N(CCC(c1ccccc1)c1ccco1)Cc1ccc(OC)c(OC)c1 (stereo not shown) gave an IC50 of 155000 nM (UGT74F1 (Arabidopsis thaliana, UniProt O22820); enzyme activity, inhibitor).
For CCc1ccc(/N=C2\C(=O)N(Cc3ccc([N+](=O)[O-])cc3)c3ccccc32)cc1, the IC50 was 60 nM (PIK3CB; enzyme activity, inhibitor, ADP detection).
The IC50 of Nc1ncc(-c2cc(-c3cnn(CC(F)(F)F)c3)ncc2F)nc1C(=O)NC1CNCC(F)C1 (stereo not shown) is reported as 387 nM (PRKDC (Homo sapiens, UniProt P78527); enzyme activity, inhibitor, radiometric).
Cc1c(COc2cc(OCc3cccc(C#N)c3)c(CN3CCCC[C@H]3C(=O)O)cc2Cl)cccc1-c1cccc(OCCCCCC(=O)NO)c1 gave an IC50 of 48.5 nM (HDAC3; enzyme activity, inhibitor).
The IC50 of CC(C)[C@H]1NC(=O)[C@@H](CC(=O)O)NC(=O)[C@H](CC(=O)O)NC(=O)CNC(=O)[C@H](CCCCN)NC(=O)CNC(=O)[C@H](N)CSSC[C@H](C(N)=O)NC1=O is reported as > 20000 nM (Integrin alpha-V/beta-3 (Homo sapiens, UniProt P05106+P06756); ligand displacement, flow cytometry).
NC(=O)c1cccc(-c2cnn3ccc(Nc4ccc(N5CCOCC5)cc4)nc23)c1 gave an IC50 of 430 nM (Cyclin-dependent kinase 2, with cyclin A (CDK2, Homo sapiens, UniProt P24941); radiometric; together with: 1 µM ATP).
C[C@H](CCC(=O)NCC(=O)O)[C@H]1CC[C@H]2[C@@H]3CC[C@@H]4C[C@H](O)CC[C@]4(C)[C@H]3C[C@H](O)[C@]12C has an IC50 of > 80000 nM (SLC10A1).
O=C(CCc1ccc(CNC(C(=O)O)C2CCCCC2)cn1)NO (stereo not shown) gave an IC50 of 759 nM (HDAC3; enzyme activity, inhibitor).
For CN1CCC[C@@H]1C(=O)N[C@@H](Cc1ccc(-c2ccccc2)cc1)B(O)O, the IC50 was > 10000 nM (Proteasome subunit beta type-10 / Proteasome subunit beta type-3 (Homo sapiens, UniProt P40306+P49720); β2i activity, inhibitor; immunoproteasome, together with: Ac-KQL-AMC).
For Nc1ncc2c(n1)-c1c([nH]c3ccc(C4=CCOCC4)cc13)CCC2, the IC50 was 12 nM (MYLK4 (Homo sapiens, UniProt Q86YV6); enzyme activity, inhibitor, radiometric).
With O=C(NO)c1cccc(OS(=O)(=O)Oc2ccccc2)c1 the IC50 was 118 nM (HDAC8; enzyme activity, inhibitor, fluorescence).
With CNCc1ccc2c(c1)N(C(=O)OCC(F)(F)F)[C@H](CNC(=N)N)[C@H]2NC(=O)C(=O)Nc1ccc(Cl)c(F)c1 the IC50 was 700 nM (env (Human immunodeficiency virus 1, UniProt Q75760); HIV-1 infection; Cf2Th-CD4/CCR5 cells; 48 h).
The IC50 of C[C@@H](O)[C@@H]1NC(=O)[C@H](CCCCN)NC(=O)[C@@H](Cc2ccc(NC(N)=O)cc2)NC(=O)[C@H](Cc2ccc(O)cc2)NC(=O)[C@H](NC(=O)[C@@H](N)Cc2ccc(Cl)cc2)CSSC[C@@H](C(=O)N[C@@H](Cc2ccc3ccccc3c2)C(N)=O)NC1=O is reported as > 1000 nM (SSTR5 (Homo sapiens, UniProt P35346); ligand displacement, radioligand).
For CCCCn1c(NN)nc2cc3ccccc3cc2c1=O, the IC50 was 9120 nM (Genome polyprotein protease; enzyme activity, inhibitor, FRET).
CC(=O)OC1CCC2(C)C(CCC3(C)C2CC=C2C4C(C)C(C)CCC4(C(=O)O)CCC23C)C1(C)C (stereo not shown) gave an IC50 of > 100000 nM (UGT1A8 (Homo sapiens, UniProt Q9HAW9); enzyme activity, inhibitor).
O=C(CCc1ccccc1)N1C(=O)C2(NC(c3ccc(F)cc3)C3(C(=O)Nc4ccccc43)N2Cc2ccc(F)cc2)c2ccccc21 (stereo not shown) gave an IC50 of 49.4 nM (PIK3CB; enzyme activity, inhibitor, ADP detection).
CCN(CC)CC(=O)Nc1cccc(-n2cc(-c3ccc4ccc(-c5cn(-c6cccc(NC(=O)CN(CC)CC)c6)nn5)cc4c3)nn2)c1 gave an IC50 of > 10000 nM (PRKCA (Homo sapiens, UniProt P17252); enzyme activity, inhibitor).
With O=C1/C(=N\c2ccc(Cl)cc2Br)c2ccccc2N1Cc1ccccc1 (mixture of isomers) the IC50 was 328 nM (PIK3CB; enzyme activity, inhibitor, ADP detection).
CCCCCCC#Cc1cncc(-c2nnc(SCc3cc([N+](=O)[O-])cc([N+](=O)[O-])c3)n2C)c1 gave an IC50 of 171000 nM (mraY (Staphylococcus aureus, UniProt Q2FZ93); enzyme activity, inhibitor).
CC(C)C[C@H](NC(=O)[C@H](Cc1ccc(CN)cc1)NC(=O)[C@H](Cc1ccccc1)N=[N+]=[N-])C(=O)N[C@@H](CC1CC2CCC1C2)C(=O)[C@@]1(C)CO1 (stereo in doubt) gave an IC50 of > 10000 nM (PSMB6; competitive ABPP; Raji cell lysate).
For Cc1c(COc2cc(OCc3cccc(C#N)c3)c(CN3CCCC[C@@H]3C(=O)O)cc2Cl)cccc1-c1cccc(OCCCCCCC(=O)NO)c1, the IC50 was 14.4 nM (HDAC3; enzyme activity, inhibitor).

A few entries again:
For COc1cc(-n2cc3cc(F)cc(C(N)=O)c3n2)cc(Cl)c1C1CC(O)(CCO)CC(C)=C1C (stereo not shown), the IC50 was 0.27 nM (PARP1 (Homo sapiens, UniProt P09874); enzyme activity, inhibitor, radiometric).
For CCCCn1c(NN)nc2ccc(C)cc2c1=O, the IC50 was 23400 nM (Genome polyprotein protease; enzyme activity, inhibitor, FRET).
The IC50 of O=C1/C(=N\c2ccccc2Br)c2ccccc2N1Cc1ccc([N+](=O)[O-])cc1 is reported as 46.8 nM (PIK3CB; enzyme activity, inhibitor, ADP detection).
Cc1ccc2c(c1Br)C(O)(CC(=O)c1ccc3c(c1)OCO3)C(=O)N2 (stereo not shown) has an IC50 of 36600 nM (Uncharacterized protein (Trypanosoma brucei brucei, UniProt Q386Q8); inhibitor, coupled colorimetric; Trypanosoma brucei).
